# Results gathered from unrelated publications.
# Numbers after ± are the reported error.
# Chain of UniProt P08183 (whole entry, looked up): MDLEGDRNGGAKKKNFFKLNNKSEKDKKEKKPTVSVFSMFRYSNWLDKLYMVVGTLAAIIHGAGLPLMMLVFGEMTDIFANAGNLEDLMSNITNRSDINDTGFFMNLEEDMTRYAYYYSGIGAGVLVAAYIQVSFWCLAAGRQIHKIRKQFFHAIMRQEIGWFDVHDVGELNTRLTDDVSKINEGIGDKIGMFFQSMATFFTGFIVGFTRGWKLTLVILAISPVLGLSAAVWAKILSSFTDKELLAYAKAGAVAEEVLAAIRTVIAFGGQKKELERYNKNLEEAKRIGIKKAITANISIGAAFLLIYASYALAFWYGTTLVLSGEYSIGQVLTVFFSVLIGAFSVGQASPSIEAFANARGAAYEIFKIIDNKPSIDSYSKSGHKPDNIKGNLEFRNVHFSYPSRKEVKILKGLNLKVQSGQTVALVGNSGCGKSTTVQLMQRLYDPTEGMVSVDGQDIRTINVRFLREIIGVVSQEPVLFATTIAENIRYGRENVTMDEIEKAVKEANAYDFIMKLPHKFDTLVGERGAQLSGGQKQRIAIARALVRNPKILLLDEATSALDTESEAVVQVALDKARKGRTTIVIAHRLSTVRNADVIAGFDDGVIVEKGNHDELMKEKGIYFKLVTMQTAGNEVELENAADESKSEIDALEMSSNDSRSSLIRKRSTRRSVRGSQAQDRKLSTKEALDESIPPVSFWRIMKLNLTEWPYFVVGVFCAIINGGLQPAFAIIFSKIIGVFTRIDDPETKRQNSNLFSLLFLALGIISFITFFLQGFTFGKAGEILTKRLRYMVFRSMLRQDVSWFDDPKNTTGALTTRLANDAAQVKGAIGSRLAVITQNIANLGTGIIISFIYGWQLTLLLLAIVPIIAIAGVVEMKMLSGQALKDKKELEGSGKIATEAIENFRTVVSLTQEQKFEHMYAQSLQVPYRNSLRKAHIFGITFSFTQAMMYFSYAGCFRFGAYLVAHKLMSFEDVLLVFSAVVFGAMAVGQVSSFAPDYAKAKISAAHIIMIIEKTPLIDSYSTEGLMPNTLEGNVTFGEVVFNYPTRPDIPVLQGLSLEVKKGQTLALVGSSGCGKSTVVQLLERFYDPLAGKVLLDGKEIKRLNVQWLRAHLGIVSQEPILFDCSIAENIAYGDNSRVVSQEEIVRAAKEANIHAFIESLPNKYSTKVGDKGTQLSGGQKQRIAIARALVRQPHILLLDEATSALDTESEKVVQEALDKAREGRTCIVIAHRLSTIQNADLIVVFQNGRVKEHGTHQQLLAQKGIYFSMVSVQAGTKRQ
# Chain of UniProt Q9Y2K6 (whole entry, looked up): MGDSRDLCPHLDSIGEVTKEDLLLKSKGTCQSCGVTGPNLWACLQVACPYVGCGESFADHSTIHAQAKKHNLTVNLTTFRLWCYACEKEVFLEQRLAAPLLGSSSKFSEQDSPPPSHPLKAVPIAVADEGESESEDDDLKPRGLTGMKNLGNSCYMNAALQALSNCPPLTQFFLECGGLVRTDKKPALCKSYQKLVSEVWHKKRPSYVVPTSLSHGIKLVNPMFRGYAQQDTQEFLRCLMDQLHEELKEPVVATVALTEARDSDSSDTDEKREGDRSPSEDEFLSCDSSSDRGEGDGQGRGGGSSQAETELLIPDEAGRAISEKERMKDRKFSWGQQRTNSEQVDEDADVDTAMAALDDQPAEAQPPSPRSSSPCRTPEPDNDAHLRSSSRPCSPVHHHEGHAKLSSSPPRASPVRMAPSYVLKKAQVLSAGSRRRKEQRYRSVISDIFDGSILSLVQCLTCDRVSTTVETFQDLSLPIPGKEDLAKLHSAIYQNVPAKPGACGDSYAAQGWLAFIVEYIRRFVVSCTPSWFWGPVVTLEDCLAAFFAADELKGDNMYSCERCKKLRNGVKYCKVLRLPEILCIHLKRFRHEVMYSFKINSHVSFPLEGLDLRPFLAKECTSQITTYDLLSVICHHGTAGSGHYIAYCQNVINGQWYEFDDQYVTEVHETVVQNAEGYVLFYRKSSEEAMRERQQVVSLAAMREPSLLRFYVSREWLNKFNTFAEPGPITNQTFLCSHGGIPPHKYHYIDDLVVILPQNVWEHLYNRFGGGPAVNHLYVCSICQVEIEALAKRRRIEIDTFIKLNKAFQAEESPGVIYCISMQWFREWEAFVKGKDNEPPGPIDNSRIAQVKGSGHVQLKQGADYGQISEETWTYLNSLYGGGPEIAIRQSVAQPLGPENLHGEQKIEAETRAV
# Chain of UniProt Q70CQ1 (whole entry, looked up): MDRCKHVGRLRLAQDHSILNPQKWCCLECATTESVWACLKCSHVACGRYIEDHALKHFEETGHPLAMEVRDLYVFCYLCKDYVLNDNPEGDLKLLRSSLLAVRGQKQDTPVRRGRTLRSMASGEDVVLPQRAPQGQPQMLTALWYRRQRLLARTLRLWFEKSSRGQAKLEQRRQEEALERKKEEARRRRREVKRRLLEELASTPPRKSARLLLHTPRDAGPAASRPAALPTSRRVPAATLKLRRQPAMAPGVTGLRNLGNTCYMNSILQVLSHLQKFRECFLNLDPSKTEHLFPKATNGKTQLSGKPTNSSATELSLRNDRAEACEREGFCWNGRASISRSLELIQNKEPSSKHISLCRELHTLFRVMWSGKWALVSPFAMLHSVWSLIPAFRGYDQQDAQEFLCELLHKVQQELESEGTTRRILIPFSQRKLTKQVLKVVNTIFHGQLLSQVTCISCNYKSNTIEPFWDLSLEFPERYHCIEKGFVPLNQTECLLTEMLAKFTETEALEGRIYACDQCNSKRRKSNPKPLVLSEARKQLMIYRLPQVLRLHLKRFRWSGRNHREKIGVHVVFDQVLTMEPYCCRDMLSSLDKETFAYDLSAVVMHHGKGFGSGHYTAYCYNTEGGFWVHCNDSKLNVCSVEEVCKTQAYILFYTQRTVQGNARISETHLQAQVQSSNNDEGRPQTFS
Compound,tested on,assay,test system,setting,how to read,measurement,result
COc1ccc2c(=O)n(C)c(-c3ccccc3)nc2c1,,,"Sprague-Dawley rat, male, small intestine","oral, 30 mg/kg, 0.25 h",,concentration,19600 ng/mL
C[C@@H](Oc1ccc(S(C)(=O)=O)cc1C(=O)N1C[C@@H]2C[C@]2(c2cc(C(F)(F)F)on2)C1)C(F)(F)F,,,"healthy young humans, plasma","oral, 75 mg single dose",,%AUC extrapolated,22.6%
N#Cc1cc([C@H]2COC[C@@H](c3cc(Cl)cc(Cl)c3)N2)ccc1F,,"shake-flask, 1-octanol/buffer",,pH 7.4,,logD,> 4.7
Cc1nc2ccc(OCc3ccc(C(F)(F)F)cc3)cc2[nH]1,,,"Balb/c mouse, male, kidney","oral, 10 mg/kg, 4 h",,tissue concentration,5830 ± 627 ng/g
C=CC(=O)NC1CCN(c2ncc3ncnc(Nc4ccc(Oc5ccc6c(c5)ncn6C)c(C)c4)c3n2)CC1,,,"human, male, plasma","oral, 30 mg, adjusted geometric means",relative to: fed over fasted,AUC0-tz ratio,74.2%
CC(C)Nc1ccnc(Nc2cccc(-c3ccncc3)c2)n1,,,MDCKII-WT cells,"10 µM, pH 7.4",relative to: Papp B-A over A-B,efflux ratio,0.59
C=CC(=O)N(C)CCOc1c(N)ncnc1-c1cc(F)cc(NC(=O)c2ccc(C3CC3)cc2F)c1C,,,"human, whole blood","oral, 10 mg once daily, day 1",,AUC,4.94 ng·h/mL
COC(=O)c1ccc(NC(=O)CSc2nnc(-c3ccc(NC(C)=O)cc3)n2C)cc1,,,octanol/buffer,pH 7.4,,logD,2.33
[O]=[Co].[O]=[Co][O][Co]=[O],,,"rat, female, faeces, 24-h collection","oral gavage, single, 300 mg/kg (220 mg Co/kg), day 1, vehicle 0.5% HPMC",relative to: vehicle control subtracted,cobalt concentration,5340 µg/g
CCCCCN1C[C@H](O)[C@@H](O)[C@H](O)[C@@H]1CO,,LC-MS/MS,"Hexb-/- mice, total, brain",30 mg/kg/day,,geometric mean brain concentration,37 ng/g
CC(C)(C(=O)N1CCOc2c(C#N)cncc2C1)C(F)F,,item: blood and lymphatic disorders,"human, both sexes","oral, 10 mg once daily, 14 days, multiple ascending dose",,subjects with TEAE,0%
NC1(C(=O)N[C@@H](CCO)c2ccc(Cl)cc2)CCN(c2nc[nH]c3nccc2-3)CC1,,,metastatic CRPC patients,"480 mg b.i.d., any grade, treatment-related, added: enzalutamide 160 mg daily",,incidence of SIRS,20%
COc1ccc2c(c1)CN(C(=O)CCN1CCC(Cc3ccccc3)CC1)CC[S@@+]2[O-],,telemetry,conscious male beagle dogs,"intravenous, 4 mg/kg, 4 h",,QT interval,243 ± 17 ms
Cn1cc(-c2cn3nccc3c(-c3cnn([C@]4(CC#N)C[C@@H](C#N)C4)c3)n2)cn1,,,"healthy humans fed, plasma","oral, 100 mg once daily, day 10, geometric mean",,peak to trough ratio,25.3
CCN1/C(=C/C(C)=O)Sc2ccc(F)cc21,,,cynomolgus monkey,"oral, 30 mg/kg, 6 h post-dose",,heart rate,93 ± 27 beats/min
C[Si]1(C)O[Si](C)(C)O[Si](C)(C)O[Si](C)(C)O[Si](C)(C)O1,,,1-octanol/water,concentration not given,,enthalpy of phase change,16.4 kcal/mol
Cc1nc(Nc2ncnc3ccc(-c4cccc(N5CCOCC5)c4)cc23)oc1C,,,human liver microsomes,,,CLint,24 µL/min/mg
CCOc1ccc(NC(C)=O)cc1,,HPLC C18 retention,,pH 7.4,relative to: calibration standards,chromatographic hydrophobicity index,49.3
Cc1cc(-c2nccc3c2ccn3CC(=O)Nc2ccc(-c3cnccn3)cn2)ccn1,,,human,"SAD part, single 7 mg dose",,subjects with grade 1 TEAE,33.3%
COc1ccccc1OCC(O)CN1CCN(CC(=O)Nc2c(C)cccc2C)CC1 (stereo not shown),,,"human, plasma","oral, 60 mg/kg/day every 6 h",,trough plasma concentration,312 ng/mL
COc1ncc(-c2nc3c(n2C(C)C)[C@H](c2ccc(Cl)cc2)N(c2cc(Cl)cn(C)c2=O)C3=O)c(OC)n1,,,"human patients, plasma","oral, 25 mg, high-dose arm, cycle 2 day 1",,median Tmax,2.9 h
Clc1ccc([C@H]2COC[C@@H](c3ccc(-c4ccccn4)cc3)N2)cc1,,"shake-flask, 1-octanol/buffer",,pH 7.4,,logD,> 4.7
CN(C(=O)n1cnc(-c2cccnc2)c1)[C@H]1CC[C@H](O)CC1,,,"Wistar rat, pons","oral, 10 mg/kg/day of BIA 10-2474, 48 h, repeated 5 days",,concentration,14 ± 1 ng/g
Cn1ncnc1[C@H]1c2n[nH]c(=O)c3cc(F)cc(c23)N[C@@H]1c1ccc(F)cc1,,,"FVB mice, brain","oral, 0.15 mg/kg, 2 h",relative to: Mdr1a/b−/− over wild type,brain concentration ratio,35 fold
COc1ccc([C@@H]2COC[C@H](c3ccc(-c4ccccc4)cc3)N2)cc1,,"shake-flask, 1-octanol/buffer",,pH 7.4,,logD,> 4.7
CCc1cc(C(=O)NC)c2nccc(N3CCc4c(cc(Cn5ccnc5)cc4-c4cn(C)nc4C(F)(F)F)C3=O)c2c1,,,Sprague Dawley rats,"oral, 100 mg/kg twice daily, 7 days",relative to: vehicle,serum RDW change,-8.07%
COc1c(N2C[C@@H]3CCCN[C@@H]3C2)c(F)cc2c(=O)c(C(=O)O)cn(C3CC3)c12,,,healthy volunteers,400 mg,,subjects with dry mouth,0%
Cc1ccc(C(=O)O)cc1S(=O)(=O)Nc1cccc(C(=O)CCC(=O)O)c1,"Ubiquitin carboxyl-terminal hydrolase 20, ZnF-UBD domain (USP20, Homo sapiens, UniProt Q9Y2K6)",,,,,Kd,> 1000 µM
COc1cc(Nc2ncc3c(n2)-c2ccc(Cl)cc2C(c2c(F)cccc2OC)=NC3)ccc1C(=O)O,,"item: decreased neutrophil count, all grades","cancer patients, phase 1/2","oral, dose not given, added: pembrolizumab",,patients with adverse event,42%
O=C(Cn1cnc([N+](=O)[O-])n1)Nc1ccc(N2CCOCC2)c(Cl)c1,,,octanol/buffer,pH 7.4,,logD,2.08
C[C@H]1CN(C(=O)CC#N)[C@]12CCN(c1ncnc3[nH]ccc13)C2,,,healthy human,"oral, 6 mg single",,subjects with catheter site bruise,12.5%
Cc1ccc(Sc2ccccc2N2CCNCC2)c(C)c1,,item: Thirst,healthy adult women,"oral, 5 mg daily, 12 days",,participants with TEAE,0%
C[C@@H](O)CCOC(=O)C[C@@H](C)O,,,human,"oral drink, dose not given, 60 min post dose, mean",,diastolic blood pressure,66 mmHg
C=CCn1c(=O)c2cnc(Nc3ccc(N4CCN(C)CC4)cc3)nc2n1-c1ccc2c(n1)[C@@](O)(CC)CC2,,,"A-427, female NOD/SCID mouse xenograft, plasma","oral, 80 mg/kg once daily",,AUC(0-24),23600 ng·h/mL
O=C(COc1ccc(Cl)cc1)NC12CC(c3nnc([C@H]4C[C@@H](OC(F)(F)F)C4)o3)(C1)C2,,,human both sexes,"oral, 15 mg single dose",,participants with TEAE,50%
CN(CCC#N)C1CCN(C(=O)Cn2cc(NC(=O)c3cnn4cccnc34)c(-c3cc(Cl)ccc3OC(F)F)n2)CC1,,,"human, single ascending dose","0.5 mg, day 4",relative to: baseline,LDL cholesterol change,6.5 mg/dL
NC/C(=C\F)COc1cccc(Cn2c(=S)[nH]c(=O)c3[nH]cnc32)c1,,,"C57BL/6J mice, kidney","oral, 15 mg/kg single, 6 h",,tissue concentration,414 ng/mL
O=C(O)CCc1ccno1,"Ubiquitin carboxyl-terminal hydrolase 49, ZnF-UBD domain (USP49, Homo sapiens, UniProt Q70CQ1)",,,,,Kd,> 1000 µM
CCOc1c([C@H](C)n2nc(C)c3c(N)ncnc32)cc(Cl)c(F)c1[C@@H]1CNC(=O)C1,,item: QTcF change above 60 ms,previously treated B-cell malignancy,"oral, 45 mg once daily, overall population",relative to: baseline,patients,0%
COc1cccc(OC)c1-c1cc(C(=O)NC2(C(=O)O)C3CC4CC(C3)CC2C4)nn1-c1ccc(C(=O)N(C)CCCN(C)CCCN(C)C(=O)CN2CCN(CC(=O)[O-])CCN(CC(=O)[O-])CCN(CC(=O)[O-])CC2)cc1C(C)C.[177Lu+3] (stereo not shown),,,"mouse HT-29 xenograft, small intestine","168 h post injection, biodistribution",,tissue uptake,0.081 %ID/g
CCN1CCN(Cc2ccc(Nc3ncc(F)c(-c4cc(F)c5nc6n(c5c4)[C@H](C)CCC6)n3)nc2)CC1,,,"human, plasma","300 mg multiple dosing, mean",,CL/F,41.2 L/h
Nc1ncnc2c1ncn2[C@H]1C[C@@H]2OP(=O)(O)OC[C@H]3O[C@@H](n4cnc5c(N)ncnc54)C[C@@H]3OP(=O)(O)OC[C@H]2O1,,,"non-tumor-bearing mice, blood","intravenous, 1 mg/kg, toxicity study",,RDW-SD,20.6 ± 0.61 fL
CC(C)C[C@H](NC(=O)[C@H]1O[C@@H]1C(=O)O)C(=O)NCCCCN=C(N)N,,,PBS,"100 µM, 23 h, pH 7.45, 37 °C, added: GSH 5 mM",,GSH adduct formation,64%
COCCOc1cnc2ccn([C@H](C)c3nnc4c(F)cc(-c5cnn(C)c5)cn34)c(=O)c2c1,,,"cancer patients, plasma","oral, 150 mg twice daily, day 28",,Ctrough,1200 ng/mL
O=C1CC[C@H](N2Cc3cc(N4CCN(CC5CCN(c6ccc([C@@H]7c8ccc(O)cc8CC[C@@H]7c7ccccc7)cc6)CC5)CC4)ccc3C2=O)C(=O)N1,,,human,"oral, 200 mg, added: dabigatran etexilate 75 mg",,participants with TEAE haematoma,0%
CNc1cc[n+](CCNC(=O)c2ccn3c(-c4c(C)noc4C)cnc3c2)cc1.[Cl-],,,0.1 M HCl,"initial, pH 1",,largest degradation product,not detected
O=C(O)CN1CCCN2CCN(CC(=O)O)CCCN(CC1)Cc1cccc(n1)C2,,,64Cu complex in rat plasma,"24 h, 37 °C",,intact complex,98%
Cc1ccc(O)c(-n2nc3ccccc3n2)c1,,exposure assessment,"human, age 21-60 years","concentration not given, spray sunscreen, 95th percentile",,"daily dermal uptake, percentile",3150 ng/kg body weight/day
CC[C@H]1[C@@H](O)[C@@H]2[C@H](CC[C@]3(C)[C@@H]([C@H](C)CCNC(=O)NS(=O)(=O)c4ccc(C(C)(C)C)cc4)CC[C@@H]23)[C@@]2(C)CC[C@@H](O)C[C@@H]12,"ABCB1 (Homo sapiens, UniProt P08183)",,"human, plasma","dose not given, median, alone",,Tmax,4 h
Cc1ccc([C@@H]2O[C@H](CO)[C@@H](O)[C@H](O)[C@H]2O)cc1Cc1ccc(-c2ccc(F)cc2)s1,,,Japanese type 2 diabetes patients,"100 mg, day 3, 24 h urine collection",relative to: baseline,urinary potassium excretion change,3.2 mEq
N#Cc1ccc2c(c1)[C@H]1CCCN(C(=O)c3ccc4[nH]cnc4c3)[C@H]1C2,,,human,"40 mg, end of trial",,maximum ACTH level,14.4 pmol/L
O=C(O)CCC(=O)O.[2H]C([2H])([2H])Oc1cc(C)c2[nH]ccc2c1CN1CC[C@@H](C2CC2)C[C@H]1c1ccc(C(=O)O)cc1,,,healthy Chinese subjects,"50 mg twice daily, multiple ascending dose",,subjects with drug-related TEAE,12.5%
O=c1ccc2ccc(O)cc2o1,,metabolic stability,rat liver S9,"2 µM, pH 7.4",,CLint scaled,787 mL/min/kg
CC1(C)OC[C@H](C2CCC2)N[C@@H]1c1ccc(Cl)c(Cl)c1,,"shake-flask, 1-octanol/buffer",,pH 7.4,,logD,> 4.7
C=CC(=O)N1CCC(c2ccc(C(N)=O)c(-c3ccc(Oc4ccccc4)cc3)n2)CC1,,CTCAE 4.03,patients with relapsed/refractory MCL,"oral, dose not given",,incidence of serious anal fistula,0.9%
C[C@@H](NC(=O)N1C(=O)[C@H](Cc2ccnc(N)c2)[C@H]1C(=O)O)C1CCCCC1,,UPLC-MS/MS,"healthy adult Chinese volunteers, plasma","continuous intravenous infusion, 0.3 mg/kg/h, day 6 of 5-day infusion, mean",,CL,4.98 mL/min/kg
C=CC(=O)Nc1cc(Nc2nccc(-c3cn(C)c4ccccc34)n2)c(OC)cc1N(C)CCN(C)C,,storage stability,human plasma,"10 d, -80 °C, MQC level",,recovery,102%
CC(=O)Nc1cccc(-c2nnc(SCC(=O)Nc3ccc(C(C)=O)cc3)n2C)c1,,,octanol/buffer,pH 7.4,,logD,1.84

# Excerpt of the above:
Compound,tested on,assay,test system,setting,how to read,measurement,result
NC1(C(=O)N[C@@H](CCO)c2ccc(Cl)cc2)CCN(c2nc[nH]c3nccc2-3)CC1,,,metastatic CRPC patients,"480 mg b.i.d., any grade, treatment-related, added: enzalutamide 160 mg daily",,incidence of SIRS,20%
COc1ccc2c(c1)CN(C(=O)CCN1CCC(Cc3ccccc3)CC1)CC[S@@+]2[O-],,telemetry,conscious male beagle dogs,"intravenous, 4 mg/kg, 4 h",,QT interval,243 ± 17 ms
Cn1cc(-c2cn3nccc3c(-c3cnn([C@]4(CC#N)C[C@@H](C#N)C4)c3)n2)cn1,,,"healthy humans fed, plasma","oral, 100 mg once daily, day 10, geometric mean",,peak to trough ratio,25.3
CCN1/C(=C/C(C)=O)Sc2ccc(F)cc21,,,cynomolgus monkey,"oral, 30 mg/kg, 6 h post-dose",,heart rate,93 ± 27 beats/min
